Results gathered from unrelated publications.
Parts stem from different laboratories: compare values within a part only. Positions count from the first letter of the parent shown.

Sample 1
Target: Histone acetyltransferase KAT6A, winged helix 1, GST fusion (KAT6A, Homo sapiens, UniProt Q92794, residues 1-85)
Method: protein binding microarray
Form: double-stranded DNA, one strand shown
Medium: in vitro
Concentration: not given
Notes: 8-mer, flanks averaged, mean of 2 arrays, mostly near background
Relative to: not given
Reading: higher = stronger binding
Residues (chain): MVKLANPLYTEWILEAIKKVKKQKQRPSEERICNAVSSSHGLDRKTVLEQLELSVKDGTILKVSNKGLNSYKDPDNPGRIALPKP
The E-score of `CCGGCAAG` is reported as 0.278.
With `ATCCAAAG` the E-score was -0.234.
With `CTACGGTC` the E-score was 0.207.
`TTAGGGAA` has an E-score of -0.127.
For `AGTATAGA`, the E-score was -0.109.
`CTAGCAGC` gave an E-score of -0.214.
For `GGGGAATA`, the E-score was -0.0898.
`ACCCCCCT` has an E-score of -0.189.
`ATGACGGA` has an E-score of 0.0105.
`CAAATGAA` gave an E-score of -0.213.
With `CGCCCACG` the E-score was 0.3.
With `GACCTCCC` the E-score was 0.0666.
With `GAGATTAC` the E-score was 0.102.
`GATGGCGC` gave an E-score of 0.261.
The E-score of `ATACCATC` is reported as -0.0731.
`AATTGAGT` has an E-score of -0.153.
The E-score of `CCTGGAAA` is reported as -0.103.
`CGAGCCTC` has an E-score of 0.018.
`CTCCGTCA` has an E-score of 0.0257.
`CAACCATG` gave an E-score of 0.027.
`CATCGGCC` gave an E-score of 0.27.
`ACTCGCGA` gave an E-score of 0.0678.
`CACGGAGA` gave an E-score of 0.142.
The E-score of `ACATACAA` is reported as -0.0107.
`ATAGGAGC` gave an E-score of -0.0255.

Sample 2
Target: TAR DNA-binding protein 43, full length, His tag (TARDBP, Homo sapiens, UniProt Q13148, residues 1-414)
Method: RNA Bind-n-Seq
Form: RNA
Medium: in vitro
Concentration: 20 nM
Notes: 6-mer, flanks averaged, single round
With: 150 mM KCl
Relative to: input library
Reading: higher = stronger binding
`UCCUAA`: “6-mer enrichment (R)” 0.575.
`CAAUGU` — result for “6-mer enrichment (R)”: 0.671.
`GGUUAC`: “6-mer enrichment (R)” 0.839.
Under “6-mer enrichment (R)”, `CCACGU` is recorded as 0.678.
For `GAAAAG`, “6-mer enrichment (R)” read 1.08.
For `GUCGAA`, “6-mer enrichment (R)” read 0.867.
`GCUACG`: “6-mer enrichment (R)” 0.963.
`GCCUCG`: “6-mer enrichment (R)” 0.843.
`GAGGUG` — result for “6-mer enrichment (R)”: 3.47.
For `CACCUA`, “6-mer enrichment (R)” read 0.635.
Under “6-mer enrichment (R)”, `CGCAAU` is recorded as 0.655.

Sample 3
Target: Centromere-binding protein 1, full length, His-tagged (CBF1, Saccharomyces cerevisiae, UniProt P17106, residues 1-351)
Sequence of UniProt P17106 (whole entry, looked up): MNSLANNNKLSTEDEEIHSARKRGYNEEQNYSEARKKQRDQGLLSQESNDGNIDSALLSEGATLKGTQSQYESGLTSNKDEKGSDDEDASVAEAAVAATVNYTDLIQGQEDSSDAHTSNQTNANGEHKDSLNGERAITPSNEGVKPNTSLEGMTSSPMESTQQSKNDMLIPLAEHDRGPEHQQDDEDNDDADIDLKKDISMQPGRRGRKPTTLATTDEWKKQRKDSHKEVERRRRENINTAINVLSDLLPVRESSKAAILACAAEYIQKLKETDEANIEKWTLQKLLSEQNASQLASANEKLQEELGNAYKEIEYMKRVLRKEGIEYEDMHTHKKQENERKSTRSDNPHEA
Method: competition protein-binding microarray
Form: double-stranded DNA, one strand shown
Medium: in vitro
Concentration: 2 µM
Notes: whole 60-bp probe, lowest competitor level
With: Pho4 competitor, 0.05 µM
Reading: higher = stronger binding
With `CATAGATCGCACCAGCGCGTGGGTATCTTTCATTATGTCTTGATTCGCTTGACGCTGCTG` the fluorescence intensity was 70.8 a.u.
For `CTTTCCCGATCTTGGAATGTGGGTGTAGCACATTTGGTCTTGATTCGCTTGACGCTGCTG`, the fluorescence intensity was 65.8 a.u.
`ACCTGCACCGCCACCCCTTCCAGATCTATTTAAAACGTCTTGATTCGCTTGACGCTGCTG` gave a fluorescence intensity of 75.9 a.u.
The fluorescence intensity of `CGTCCTAGTGATTGGTAGGTGGGTGCCATGAGGAAGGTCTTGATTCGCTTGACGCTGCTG` is reported as 76.6 a.u.
`GTTTACTATTTATGCAACGTGGTAATAAGACTGTCTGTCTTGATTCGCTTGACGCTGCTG` gave a fluorescence intensity of 137 a.u.
The fluorescence intensity of `TTTCAAAATCGTTTGCACGTGCTTTCGACTGCACTGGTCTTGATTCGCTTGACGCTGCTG` is reported as 2080 a.u.
With `ATATTATTGATTTTGCACGTGACGAAATGAAAAACAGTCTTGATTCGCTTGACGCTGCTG` the fluorescence intensity was 7360 a.u.
`AAATTACTAAGTTGCATGGTGGGTGACGCCGTATGAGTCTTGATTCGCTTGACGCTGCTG` has a fluorescence intensity of 66.8 a.u.
`GTCTTGTCTCATTTTCACGTGCCTTTCCCCACTTCAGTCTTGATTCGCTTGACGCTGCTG` has a fluorescence intensity of 991 a.u.
With `TACTGTACCAATCACCACGTTTTGACTATGTGGACTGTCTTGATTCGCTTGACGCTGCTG` the fluorescence intensity was 104 a.u.
`AAATTACTAAGTTGTCACGGGACTTACCCCGTATGAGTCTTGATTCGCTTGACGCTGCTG` has a fluorescence intensity of 1620 a.u.
With `CTTTCCCGATCTTGTCACTCCACTTTAGCACATTTGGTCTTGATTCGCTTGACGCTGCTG` the fluorescence intensity was 76.2 a.u.
With `TTGCCATCCGGATTGAACGTGTAGCAGTTTTTAAAGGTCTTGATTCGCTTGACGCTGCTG` the fluorescence intensity was 84.4 a.u.
The fluorescence intensity of `CTTTCCCGATCTTGTCACGGCACTTTAGCACATTTGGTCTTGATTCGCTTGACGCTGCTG` is reported as 100 a.u.
For `TTGGGCTGGTGCGATTTCGTGGGTAGTATTCAGGACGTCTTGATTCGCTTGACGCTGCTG`, the fluorescence intensity was 72.9 a.u.
`TGTTTCGCGGCGTTACACGTGAGATCCTATTATTTCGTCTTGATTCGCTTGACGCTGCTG` has a fluorescence intensity of 1240 a.u.

Sample 4
Target: Fragile X messenger ribonucleoprotein 1, C-terminal low-complexity region (Fmr1, Mus musculus, UniProt P35922)
Method: RNA Bind-n-Seq
Form: RNA
Medium: in vitro
Concentration: 200 nM
Notes: whole 134-nt RNA, ends assumed
With: 150 mM KCl
Relative to: input library
Reading: higher = stronger binding
With `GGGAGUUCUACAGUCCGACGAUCAGUCCUGUGCUACACAUCGUAUGUACCGAAUCGGGAAAAAGGGUGGGUUUUUUUGGGAAAGUAUUAUGUUACGCCGUUCGGAUCUGCACUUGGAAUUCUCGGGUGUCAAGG` the log2 enrichment was 0.627.
The log2 enrichment of `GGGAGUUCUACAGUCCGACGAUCCCUCAAGUCCUGUGCUACACAUCGUAUGUACCGAAUCGGGCGGGGCGGCGGGAAAGUAUUAUGUUACGCCGUUCGGAUCUGCACUUCCAGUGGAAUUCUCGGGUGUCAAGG` is reported as 0.654.
`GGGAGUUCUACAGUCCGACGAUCAAGUCCUGUGCUACACAUCGUAUGUACCGAAUCGGUUUUGGGUUUUGGGGUUUUGGAAAGUAUUAUGUUACGCCGUUCGGAUCUGCACUUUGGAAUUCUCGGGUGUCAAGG` has a log2 enrichment of -0.366.
For `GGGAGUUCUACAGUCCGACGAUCUCAAGUCCUGUGCUACACAUCGUAUGUACCGAAUCGGUUUGGGGUUUGGUUUGGAAAGUAUUAUGUUACGCCGUUCGGAUCUGCACUUCCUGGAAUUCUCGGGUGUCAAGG`, the log2 enrichment was -0.176.
The log2 enrichment of `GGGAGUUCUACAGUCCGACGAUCCCUGUGCUACACAUCGUAUGUACCGAAUCGGGGUUUUUUGGGUUUUUUGGUUUUUUGGGGAAAGUAUUAUGUUACGCCGUUCGGAUCUGCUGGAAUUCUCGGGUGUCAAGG` is reported as -0.389.
The log2 enrichment of `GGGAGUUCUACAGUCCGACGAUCUAACUUUAGAGGAGGAUCUGAUGGAUAUGGCAGUGGACGUGGAUUUGGGGAUGGCUAUAAUGCGUAUGGAGGAGGACCUGGAGGUGGCAAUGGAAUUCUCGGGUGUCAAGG` is reported as 0.0716.
`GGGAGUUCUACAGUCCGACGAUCCUCAAGUCCUGUGCUACACAUCGUAUGUACCGAAUCGGGCGGGGCGGGGCGGGAAAGUAUUAUGUUACGCCGUUCGGAUCUGCACUUCCAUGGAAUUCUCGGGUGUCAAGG` has a log2 enrichment of 1.41.
The log2 enrichment of `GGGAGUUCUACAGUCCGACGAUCACCAUGCAGGUGGGCAUCUUUGGGAAGUGGGGCAAGGGCGGGAUAGGGAGGGGGGUAACACUUUGGGAACAGGUGGUCCCAGGUCGUUUCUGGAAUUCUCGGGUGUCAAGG` is reported as 0.582.
For `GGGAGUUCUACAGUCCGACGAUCGCAGGAAGUAAAAACAAAUGGAAAUGCUUCGGAUAGUGGCAGGGGUGGGGGUUGCUAAGGAAAGGGUGGAAAGGGAGUGGGUAAAGAGUUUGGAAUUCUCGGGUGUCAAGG`, the log2 enrichment was 0.0838.
`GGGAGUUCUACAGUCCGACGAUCCUCAAGUCCUGUGCUACACAUCGUAUGUACCGAAUCGGAAAGGUUUGGAAAGGAAAGUAUUAUGUUACGCCGUUCGGAUCUGCACUUCCAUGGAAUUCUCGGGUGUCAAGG` has a log2 enrichment of -0.482.

Sample 5
Target: CCNB1, cyclin fold, Cln2 fusion (human)
Method: yeast growth competition, sequencing
Medium: yeast
Notes: strong parent motif
Relative to: not given
Reading: higher = stronger binding
Starting sequence: E2F1 docking peptide (human); PPVKRRLDLETDH; partner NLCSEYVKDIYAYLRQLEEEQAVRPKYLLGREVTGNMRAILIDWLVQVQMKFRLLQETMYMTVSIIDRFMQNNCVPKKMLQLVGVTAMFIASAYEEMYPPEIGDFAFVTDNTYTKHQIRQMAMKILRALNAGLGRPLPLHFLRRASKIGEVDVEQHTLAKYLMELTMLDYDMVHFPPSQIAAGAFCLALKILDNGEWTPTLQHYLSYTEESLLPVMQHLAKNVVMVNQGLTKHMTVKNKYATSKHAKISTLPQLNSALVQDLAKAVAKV
`PPVKRRADLETDH [L7A]`: “normalised enrichment score” 0.466.
For `PPVKRRLDFETDH [L9F]`, “normalised enrichment score” read 4.92.
For `PPVKRRLDLSTDH [E10S]`, “normalised enrichment score” read 0.462.
Under “normalised enrichment score”, `PPVGRRLDLETDH [K4G]` is recorded as 0.232.
Under “normalised enrichment score”, `PPVKRRLDLHTDH [E10H]` is recorded as 1.68.
Under “normalised enrichment score”, `PPVKRRLDLETDK [H13K]` is recorded as 1.05.
`MPVKRRLDLETDH [P1M]`: “normalised enrichment score” 1.78.
For `PPVKRRLDLEFDH [T11F]`, “normalised enrichment score” read 2.58.
For `PPVKYRLDLETDH [R5Y]`, “normalised enrichment score” read 0.264.
`PPVKRRLDLEWDH [T11W]` — result for “normalised enrichment score”: 1.94.
For `PPCKRRLDLETDH [V3C]`, “normalised enrichment score” read 0.611.
Under “normalised enrichment score”, `CPVKRRLDLETDH [P1C]` is recorded as 0.64.
`PGVKRRLDLETDH [P2G]` — result for “normalised enrichment score”: 0.833.
`PPVYRRLDLETDH [K4Y]`: “normalised enrichment score” -0.199.
Under “normalised enrichment score”, `EPVKRRLDLETDH [P1E]` is recorded as 0.704.
Under “normalised enrichment score”, `PPVKRRLDLETDR [H13R]` is recorded as 1.14.

Sample 6
Target: ABI1, truncated, D143A, DHFR fusion (Arabidopsis thaliana)
Method: DHFR PCA, deep sequencing
Medium: yeast
Notes: methotrexate growth selection, single substitutions
With: (+)-ABA 0 µM
Relative to: wild-type fitted maximum
Reading: higher = stronger binding
Starting sequence: PYL1, truncated, DHFR fusion (Arabidopsis thaliana); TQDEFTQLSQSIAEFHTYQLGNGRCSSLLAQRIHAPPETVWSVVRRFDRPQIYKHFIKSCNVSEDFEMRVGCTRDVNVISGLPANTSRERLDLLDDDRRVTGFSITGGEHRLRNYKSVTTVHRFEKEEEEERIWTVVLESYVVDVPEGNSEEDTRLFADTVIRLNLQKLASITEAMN
`S63Q`: “relative binding score” 15.6%.
`Q167K` — result for “relative binding score”: 26.2%.
`S87V` — result for “relative binding score”: 59.1%.
For `Y115H`, “relative binding score” read 12.9%.
`N22V`: “relative binding score” 33.4%.
`S140N` — result for “relative binding score”: -8.23%.
For `Q167W`, “relative binding score” read -2.75%.
`E152Q`: “relative binding score” 14.1%.
`T119L`: “relative binding score” -5.92%.
`I33Y`: “relative binding score” 0.568%.
Under “relative binding score”, `V100H` is recorded as -2.35%.
`V70A` — result for “relative binding score”: 6.58%.
`D92R` — result for “relative binding score”: 9.25%.

Some of these lines once more (sample 5):
For `PPVKRRLDLSTDH [E10S]`, “normalised enrichment score” read 0.462.
Under “normalised enrichment score”, `PPVGRRLDLETDH [K4G]` is recorded as 0.232.
Under “normalised enrichment score”, `PPVKRRLDLHTDH [E10H]` is recorded as 1.68.
Under “normalised enrichment score”, `PPVKRRLDLETDK [H13K]` is recorded as 1.05.
`MPVKRRLDLETDH [P1M]`: “normalised enrichment score” 1.78.
For `PPVKRRLDLEFDH [T11F]`, “normalised enrichment score” read 2.58.
For `PPVKYRLDLETDH [R5Y]`, “normalised enrichment score” read 0.264.
`PPVKRRLDLEWDH [T11W]` — result for “normalised enrichment score”: 1.94.
For `PPCKRRLDLETDH [V3C]`, “normalised enrichment score” read 0.611.
Under “normalised enrichment score”, `CPVKRRLDLETDH [P1C]` is recorded as 0.64.
`PGVKRRLDLETDH [P2G]` — result for “normalised enrichment score”: 0.833.
